Measurements of several laboratories.
Numbered parts are unrelated; each lists some results of a single study.
UniProt P50613, sequence (whole entry, looked up): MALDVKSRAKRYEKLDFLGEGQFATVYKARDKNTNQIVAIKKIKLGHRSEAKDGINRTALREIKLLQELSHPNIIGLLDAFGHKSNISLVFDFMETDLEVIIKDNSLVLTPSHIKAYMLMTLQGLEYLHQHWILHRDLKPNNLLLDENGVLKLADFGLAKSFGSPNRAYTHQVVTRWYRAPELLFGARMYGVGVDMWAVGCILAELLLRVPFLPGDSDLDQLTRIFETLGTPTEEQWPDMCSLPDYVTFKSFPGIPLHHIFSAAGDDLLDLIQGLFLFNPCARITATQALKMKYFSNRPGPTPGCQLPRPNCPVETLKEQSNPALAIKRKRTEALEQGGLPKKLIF
UniProt Q15746, sequence (whole entry, looked up): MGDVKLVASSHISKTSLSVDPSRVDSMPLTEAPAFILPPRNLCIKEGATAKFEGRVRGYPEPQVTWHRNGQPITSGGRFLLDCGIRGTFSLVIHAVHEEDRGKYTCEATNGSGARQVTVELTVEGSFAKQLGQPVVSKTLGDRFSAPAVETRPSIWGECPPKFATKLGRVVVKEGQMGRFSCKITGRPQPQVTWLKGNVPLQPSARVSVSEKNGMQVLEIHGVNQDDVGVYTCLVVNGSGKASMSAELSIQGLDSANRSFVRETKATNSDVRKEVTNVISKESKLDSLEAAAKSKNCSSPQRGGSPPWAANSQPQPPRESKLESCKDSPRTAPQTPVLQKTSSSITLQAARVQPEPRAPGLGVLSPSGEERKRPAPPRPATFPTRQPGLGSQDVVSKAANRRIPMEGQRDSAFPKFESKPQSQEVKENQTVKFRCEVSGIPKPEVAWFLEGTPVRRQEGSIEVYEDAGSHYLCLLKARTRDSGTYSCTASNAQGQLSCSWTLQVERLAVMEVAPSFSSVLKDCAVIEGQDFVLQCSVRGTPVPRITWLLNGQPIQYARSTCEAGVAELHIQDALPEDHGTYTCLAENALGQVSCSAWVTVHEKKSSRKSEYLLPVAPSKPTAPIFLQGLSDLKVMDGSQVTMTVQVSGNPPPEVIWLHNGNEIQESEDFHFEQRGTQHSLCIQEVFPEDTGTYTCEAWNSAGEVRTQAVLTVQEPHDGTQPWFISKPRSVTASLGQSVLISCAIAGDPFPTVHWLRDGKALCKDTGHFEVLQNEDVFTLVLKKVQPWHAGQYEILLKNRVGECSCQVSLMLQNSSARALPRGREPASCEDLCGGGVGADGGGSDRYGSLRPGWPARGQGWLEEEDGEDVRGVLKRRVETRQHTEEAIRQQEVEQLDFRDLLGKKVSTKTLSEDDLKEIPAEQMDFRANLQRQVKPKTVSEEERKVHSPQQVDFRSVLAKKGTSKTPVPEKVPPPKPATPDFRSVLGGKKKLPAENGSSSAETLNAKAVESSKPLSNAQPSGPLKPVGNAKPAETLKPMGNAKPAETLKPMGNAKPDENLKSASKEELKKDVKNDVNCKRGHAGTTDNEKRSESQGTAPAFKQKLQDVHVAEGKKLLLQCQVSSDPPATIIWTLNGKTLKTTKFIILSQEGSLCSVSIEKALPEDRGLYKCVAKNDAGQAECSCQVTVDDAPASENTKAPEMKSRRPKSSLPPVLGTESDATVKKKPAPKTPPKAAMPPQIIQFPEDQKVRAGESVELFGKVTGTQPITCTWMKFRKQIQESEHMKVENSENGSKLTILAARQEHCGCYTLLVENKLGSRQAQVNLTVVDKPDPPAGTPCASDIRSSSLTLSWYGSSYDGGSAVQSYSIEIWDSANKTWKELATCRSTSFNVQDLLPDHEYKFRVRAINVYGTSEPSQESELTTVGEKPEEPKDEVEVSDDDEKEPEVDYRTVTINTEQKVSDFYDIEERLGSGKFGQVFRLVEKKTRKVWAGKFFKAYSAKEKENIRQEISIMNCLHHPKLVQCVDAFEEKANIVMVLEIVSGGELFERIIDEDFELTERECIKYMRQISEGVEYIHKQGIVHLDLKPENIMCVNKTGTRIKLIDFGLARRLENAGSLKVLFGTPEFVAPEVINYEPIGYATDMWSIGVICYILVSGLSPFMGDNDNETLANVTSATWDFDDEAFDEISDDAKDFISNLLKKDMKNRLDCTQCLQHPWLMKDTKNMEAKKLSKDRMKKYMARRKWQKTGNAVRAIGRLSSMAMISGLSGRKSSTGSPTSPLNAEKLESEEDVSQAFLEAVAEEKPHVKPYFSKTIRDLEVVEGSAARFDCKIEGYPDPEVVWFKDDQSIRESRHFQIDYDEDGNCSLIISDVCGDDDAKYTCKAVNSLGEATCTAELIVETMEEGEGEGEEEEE
UniProt P09619, sequence (whole entry, looked up): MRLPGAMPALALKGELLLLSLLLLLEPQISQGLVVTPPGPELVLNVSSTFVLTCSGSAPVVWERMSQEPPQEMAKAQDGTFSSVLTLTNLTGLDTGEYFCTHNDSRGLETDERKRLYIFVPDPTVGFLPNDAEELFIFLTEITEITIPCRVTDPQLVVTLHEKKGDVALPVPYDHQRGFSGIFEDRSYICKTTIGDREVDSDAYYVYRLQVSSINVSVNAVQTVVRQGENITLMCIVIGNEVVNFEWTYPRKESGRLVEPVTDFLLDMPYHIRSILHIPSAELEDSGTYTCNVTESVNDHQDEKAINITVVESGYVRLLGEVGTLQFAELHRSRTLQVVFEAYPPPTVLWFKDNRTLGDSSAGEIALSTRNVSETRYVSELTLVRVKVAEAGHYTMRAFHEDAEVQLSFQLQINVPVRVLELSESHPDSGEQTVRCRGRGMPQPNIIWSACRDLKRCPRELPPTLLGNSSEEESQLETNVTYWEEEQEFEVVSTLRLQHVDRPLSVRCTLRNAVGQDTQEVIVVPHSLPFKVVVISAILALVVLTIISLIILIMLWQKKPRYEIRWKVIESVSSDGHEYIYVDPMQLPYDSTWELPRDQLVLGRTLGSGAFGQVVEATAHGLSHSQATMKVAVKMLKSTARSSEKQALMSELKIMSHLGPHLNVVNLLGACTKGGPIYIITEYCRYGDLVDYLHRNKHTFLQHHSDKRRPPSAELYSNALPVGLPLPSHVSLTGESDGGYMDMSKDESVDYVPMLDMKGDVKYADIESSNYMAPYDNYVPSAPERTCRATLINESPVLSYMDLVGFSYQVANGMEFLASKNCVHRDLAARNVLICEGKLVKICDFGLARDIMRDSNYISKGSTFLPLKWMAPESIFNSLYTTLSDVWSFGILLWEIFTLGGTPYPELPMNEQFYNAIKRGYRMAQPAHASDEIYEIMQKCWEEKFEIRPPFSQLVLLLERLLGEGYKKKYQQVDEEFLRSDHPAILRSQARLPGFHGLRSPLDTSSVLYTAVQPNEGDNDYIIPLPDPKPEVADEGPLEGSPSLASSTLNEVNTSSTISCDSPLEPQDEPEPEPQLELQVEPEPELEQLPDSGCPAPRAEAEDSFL
UniProt P49336, sequence (whole entry, looked up): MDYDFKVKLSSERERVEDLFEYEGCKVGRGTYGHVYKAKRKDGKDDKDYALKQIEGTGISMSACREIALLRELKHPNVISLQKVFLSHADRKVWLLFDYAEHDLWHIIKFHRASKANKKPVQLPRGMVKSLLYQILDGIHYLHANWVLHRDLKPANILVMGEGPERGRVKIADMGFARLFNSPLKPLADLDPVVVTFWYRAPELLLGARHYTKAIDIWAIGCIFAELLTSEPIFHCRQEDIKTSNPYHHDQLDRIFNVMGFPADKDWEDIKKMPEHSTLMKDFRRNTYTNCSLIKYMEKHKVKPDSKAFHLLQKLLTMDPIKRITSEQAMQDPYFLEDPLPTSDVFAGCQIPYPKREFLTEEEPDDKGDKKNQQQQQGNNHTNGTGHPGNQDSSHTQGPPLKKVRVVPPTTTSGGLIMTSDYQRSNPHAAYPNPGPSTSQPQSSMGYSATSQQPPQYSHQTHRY
UniProt Q9H1R3, sequence (whole entry, looked up): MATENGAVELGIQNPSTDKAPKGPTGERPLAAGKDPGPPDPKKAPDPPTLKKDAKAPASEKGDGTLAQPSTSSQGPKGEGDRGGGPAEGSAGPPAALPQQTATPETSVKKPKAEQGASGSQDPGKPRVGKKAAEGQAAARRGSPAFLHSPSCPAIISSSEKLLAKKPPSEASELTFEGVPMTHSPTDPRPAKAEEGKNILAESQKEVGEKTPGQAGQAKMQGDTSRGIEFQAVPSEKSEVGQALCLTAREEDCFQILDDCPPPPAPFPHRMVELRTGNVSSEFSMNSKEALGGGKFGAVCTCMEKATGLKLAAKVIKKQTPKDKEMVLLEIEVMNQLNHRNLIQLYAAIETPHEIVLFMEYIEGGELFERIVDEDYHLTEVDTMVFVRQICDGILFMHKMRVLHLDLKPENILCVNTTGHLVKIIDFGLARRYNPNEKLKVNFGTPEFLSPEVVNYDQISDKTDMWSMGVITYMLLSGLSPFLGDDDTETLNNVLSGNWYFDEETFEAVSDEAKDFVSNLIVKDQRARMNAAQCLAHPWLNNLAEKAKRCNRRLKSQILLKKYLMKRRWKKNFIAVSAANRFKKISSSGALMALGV

Study 1 — host: mouse; matrix: microsomes or S9; concentration: 2 µM; time: 0.5 h
SMILES | remaining compound
O=C(Nc1ccc(Cl)cn1)c1c2c(nc3ccccc13)C(=O)N(C1CCCCC1)C2 | 8.13%
CCS(=O)(=O)Nc1cccc(-c2cc(=O)n(-c3ccc(Cl)c(C#N)c3)nc2C(C)C)c1 | > 99.9%
O=S1(=O)CC2Sc3ncnc4ncn(c34)C2C1 (stereo not shown) | > 99%
Cc1cc(Cl)ccc1NS(=O)(=O)c1cc(-c2ccc(=O)n(-c3c(C)noc3C)n2)ccc1C | 5.48%
Cc1ccccc1CNc1ccccc1NC(=O)c1ccc(C(=O)c2cc[nH]c2)cc1 | 21.1%
Brc1cnn(CC2CCN(Cc3cncs3)CC2)c1 | 41%
O=C(Cc1ccc(N(Cc2ccccc2)C(=O)C2CCCC2)cc1)NCc1ccco1 | 4.28%
Cc1cnc(C2CC2)n1C1CCCN(C(=O)c2ccccn2)C1 (stereo not shown) | 78%
Cc1nc2c([nH]1)CCC(C(=O)Nc1onc3c1CCCC3)C2 (stereo not shown) | 0.386%
COc1ccc(CN(Cc2ccc(OC)cc2)c2ncnc3c2[nH]c(=O)n3[C@H](C)c2cc3ccccc3nc2-c2ccccc2C)cc1 | 37.3%
O=C(NC1CCCC1)C1(Cc2ccccn2)CCOCC1 | 78.6%

Study 2 — read-out: enzyme activity; action: inhibitor; concentration: 0.5 µM; baseline: control
Target: Testis-specific serine/threonine-protein kinase 2 (TSSK2, Homo sapiens, UniProt Q96PF2)
Target sequence (Q96PF2 1-358): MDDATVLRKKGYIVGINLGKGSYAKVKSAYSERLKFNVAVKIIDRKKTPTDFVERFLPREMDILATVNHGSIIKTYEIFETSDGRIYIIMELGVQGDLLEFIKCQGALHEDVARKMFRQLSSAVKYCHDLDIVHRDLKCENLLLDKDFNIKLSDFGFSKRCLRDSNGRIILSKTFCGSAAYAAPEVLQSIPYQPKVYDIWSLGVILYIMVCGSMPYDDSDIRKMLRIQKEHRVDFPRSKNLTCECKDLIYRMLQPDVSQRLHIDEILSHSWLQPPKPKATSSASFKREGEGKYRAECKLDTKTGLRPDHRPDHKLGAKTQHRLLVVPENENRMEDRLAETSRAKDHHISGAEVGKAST
SMILES | remaining activity [%]
CO[C@H]1C[C@@H]2CC[C@@H](C)[C@@](O)(O2)C(=O)C(=O)N2CCCC[C@H]2C(=O)O[C@H]([C@H](C)C[C@@H]2CC[C@@H](O)[C@H](OC)C2)CC(=O)[C@H](C)/C=C(\C)[C@@H](O)[C@@H](OC)C(=O)[C@H](C)C[C@H](C)/C=C/C=C/C=C/1C | 99.8
CNC(=O)c1cc(Oc2ccc(NC(=O)Nc3ccc(Cl)c(C(F)(F)F)c3)cc2)ccn1 | 102
Cc1ccc(Nc2nccc(N(C)c3ccc4c(C)n(C)nc4c3)n2)cc1S(N)(=O)=O | 102
COc1cc2nccc(Oc3ccc(NC(=S)NC(=O)c4ccccc4C)cc3)c2cc1OC | 86.7
Cc1cccc(-c2[nH]c(C(C)(C)C)nc2-c2ccc3c(c2)OCO3)n1 | 92.7
COc1ccc(CNC(=O)Nc2ncc([N+](=O)[O-])s2)cc1 | 105
CN(C)c1ccc(C=C2C(=O)Nc3ccccc32)cc1 | 101
Cn1sc(=O)n(Cc2ccccc2)c1=O | 100
O=S(=O)(c1cccc2cnccc12)N1CCCNCC1 | 80.2
CCOC(=O)c1c(C)[nH]c(/C=C2\C(=O)Nc3ccccc32)c1C | 95.9

Study 3 — read-out: ligand displacement; concentration: 10 µM
Target: Histamine H1 receptor (HRH1, Homo sapiens, UniProt P35367)
UniProt P35367, sequence (whole entry, looked up): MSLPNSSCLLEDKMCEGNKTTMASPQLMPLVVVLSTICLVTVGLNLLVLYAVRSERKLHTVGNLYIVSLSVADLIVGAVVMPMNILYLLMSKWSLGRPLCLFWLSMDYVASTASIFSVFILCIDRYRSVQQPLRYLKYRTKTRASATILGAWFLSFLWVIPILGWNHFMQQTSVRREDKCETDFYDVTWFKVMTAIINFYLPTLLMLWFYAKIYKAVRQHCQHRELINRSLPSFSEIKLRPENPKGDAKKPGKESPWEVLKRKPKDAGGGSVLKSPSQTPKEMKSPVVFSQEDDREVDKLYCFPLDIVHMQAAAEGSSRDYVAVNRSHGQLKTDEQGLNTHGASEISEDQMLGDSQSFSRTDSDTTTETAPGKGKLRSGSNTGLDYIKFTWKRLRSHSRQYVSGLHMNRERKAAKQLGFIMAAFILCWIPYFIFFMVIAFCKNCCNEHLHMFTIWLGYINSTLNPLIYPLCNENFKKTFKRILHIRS
SMILES | inhibition [%]
O=c1nc(-c2ccccn2)sc2ccccc12 | -14.9
O=C(NS(=O)(=O)c1ccc(NCC2CCOCC2)c([N+](=O)[O-])c1)c1ccc(N2CCN(Cc3ccc(C(F)(F)F)cc3-c3ccc(Cl)cc3)CC2)cc1Oc1cnc2[nH]ccc2c1 | -9.16
COc1ccc2cc(OCC3(C(=O)O)CN(C(=O)c4ccc(F)cc4)C3)ccc2c1 | -11.5
N#CC1(c2ccccn2)CCN(Cc2cc(C(=O)N3CCCC3)c(=O)n3ccccc23)CC1 | 9.7
CCc1ccccc1C(=O)Nc1n[nH]c2c(C)c(F)c(C3C(C#N)=C(C)N(C)C(C)=C3C#N)cc12 | 6.23
Cc1noc([C@H]2C[C@@H](c3ccc(C(F)(F)F)cc3)CN(C(=O)N3CCS(=O)(=O)C3)C2)n1 | 11.5

Study 4 — read-out: enzyme activity; concentration: 5 µM; baseline: untreated control
SMILES: O=C(Nc1cnn(-c2csc(C(=O)NC3COC3)c2)c1)Nc1ccccc1Cl
target | remaining activity
Fibroblast growth factor receptor 3 (FGFR3, Homo sapiens, UniProt P22607) | 84.9%
Platelet-derived growth factor receptor beta (PDGFRB, Homo sapiens, UniProt P09619) | 98.5%
Cyclin-dependent kinase 7 (CDK7, Homo sapiens, UniProt P50613) | 96.6%
Muscle, skeletal receptor tyrosine-protein kinase (MUSK, Homo sapiens, UniProt O15146) | 91.2%
Myosin light chain kinase, smooth muscle (MYLK, Homo sapiens, UniProt Q15746) | 94.4%
Myosin light chain kinase 2, skeletal/cardiac muscle (MYLK2, Homo sapiens, UniProt Q9H1R3) | 89.2%
Cyclin-dependent kinase 8, with cyclin C (CDK8, Homo sapiens, UniProt P49336) | 100%

For quick reference, copied from above (study 3):
SMILES | inhibition [%]
O=c1nc(-c2ccccn2)sc2ccccc12 | -14.9
N#CC1(c2ccccn2)CCN(Cc2cc(C(=O)N3CCCC3)c(=O)n3ccccc23)CC1 | 9.7
O=C(NS(=O)(=O)c1ccc(NCC2CCOCC2)c([N+](=O)[O-])c1)c1ccc(N2CCN(Cc3ccc(C(F)(F)F)cc3-c3ccc(Cl)cc3)CC2)cc1Oc1cnc2[nH]ccc2c1 | -9.16
